Experimental data pooled from the literature.
Compare with care: the assays were run in different laboratories. Numbers after ± are the reported error.
Organism: Influenza A virus

| SMILES | test | test system | conditions | measurement | value |
| --- | --- | --- | --- | --- | --- |
| CC(=O)N[C@H]1[C@H]([C@H](O)[C@H](O)CO)OC(SCCCCCCSC2(C(=O)O)C[C@H](NC(=N)N)[C@@H](NC(C)=O)[C@H]([C@H](O)[C@H](O)CO)O2)(C(=O)O)C[C@@H]1NC(=N)N (stereo partly drawn) | plaque formation | H1N1 | 30 min | IC50 | 10 µM |
| CC1=CC[C@@H]2[C@]34CC[C@](O)(OC3)C(C)(C)[C@@H]4CC[C@@]2(C)[C@@]12Oc1cc(-c3cccnc3)oc(=O)c1[C@@H]2O | viral replication | H1N1 | – | IC50 | 9.08 µM |
| NC12CC3CC(CC(C3)C1)C2 | viral cytopathic effect, MTS | MDCK, H3N2 | – | EC50 | > 1000 µM |
| CCC(CC)O[C@@H]1C=C(C(=O)O)C[C@H](N)[C@H]1NC(C)=O | viral replication, visual CPE score | MDCK, H3N2 | – | EC50 | 20 ± 0.61 µM |
| CC(=O)N[C@H]1[C@H]([C@H](O)[C@H](O)CO)OC(SCCOCCOCCOCCSC2(C(=O)O)C[C@H](NC(=N)N)[C@@H](NC(C)=O)[C@H]([C@H](O)[C@H](O)CO)O2)(C(=O)O)C[C@@H]1NC(=N)N (stereo partly drawn) | viral replication | – | – | IC50 | 0.01 to 1 µM |
| NC12CC3CC(CC(C3)C1)C2 | viral replication | A/PR/8/34 parent allantoic stock | pH 4.9 | EC50 | 67 ± 8 µM |
| NC(=O)c1ncn([C@@H]2O[C@H](CO)[C@@H](O)[C@H]2O)n1 | viral replication | H1N1 | – | IC50 | 28.2 µM |
| CC(=O)N[C@H]1[C@H]([C@H](O)[C@H](O)CO)OC(SCCOCCOCCOCCOCCOCCSC2(C(=O)O)C[C@H](NC(N)=O)[C@@H](NC(C)=O)[C@H]([C@H](O)[C@H](O)CO)O2)(C(=O)O)C[C@@H]1NC(=N)N (stereo partly drawn) | – | H1N1 A/California/07/2009 | – | IC50 | 0.01 to 1 µM |
| CC(N)C12CC3CC(CC(C3)C1)C2 (stereo not drawn) | viral cytopathic effect, MTS | MDCK, H3N2 | – | EC50 | > 200 µM |
| COc1ccc(NC(=S)NCc2cccc3cn[nH]c23)cc1OC | viral replication, inhibitor | MDCK, H1N1 WSN | – | EC50 | 0.69 µM |
| NC(=O)c1ncn([C@@H]2O[C@H](CO)[C@@H](O)[C@H]2O)n1 | viral cytopathic effect, visual CPE score | MDCK, H1N1 | – | EC50 | 9 µM |
| Cc1cc(OCc2nnc(SC3CCCC3)n2-c2cccnc2)ccc1-c1ccc(S(C)(=O)=O)cc1 | – | MDCK, A/WS/33 (H1N1) | 0.5 µM, 24 (unit not given), infected cells | viability | 80 ± 5% |

Some of these lines once more:
| SMILES | test | test system | conditions | measurement | value |
| --- | --- | --- | --- | --- | --- |
| NC(=O)c1ncn([C@@H]2O[C@H](CO)[C@@H](O)[C@H]2O)n1 | viral cytopathic effect, visual CPE score | MDCK, H1N1 | – | EC50 | 9 µM |
| Cc1cc(OCc2nnc(SC3CCCC3)n2-c2cccnc2)ccc1-c1ccc(S(C)(=O)=O)cc1 | – | MDCK, A/WS/33 (H1N1) | 0.5 µM, 24 (unit not given), infected cells | viability | 80 ± 5% |
